# Measurements from different studies.
# Parts stem from different laboratories: compare values within a part only. Several values in a cell are separate wells, animals, samples, runs or records.
# Chain of UniProt Q7L7X3 (whole entry, looked up): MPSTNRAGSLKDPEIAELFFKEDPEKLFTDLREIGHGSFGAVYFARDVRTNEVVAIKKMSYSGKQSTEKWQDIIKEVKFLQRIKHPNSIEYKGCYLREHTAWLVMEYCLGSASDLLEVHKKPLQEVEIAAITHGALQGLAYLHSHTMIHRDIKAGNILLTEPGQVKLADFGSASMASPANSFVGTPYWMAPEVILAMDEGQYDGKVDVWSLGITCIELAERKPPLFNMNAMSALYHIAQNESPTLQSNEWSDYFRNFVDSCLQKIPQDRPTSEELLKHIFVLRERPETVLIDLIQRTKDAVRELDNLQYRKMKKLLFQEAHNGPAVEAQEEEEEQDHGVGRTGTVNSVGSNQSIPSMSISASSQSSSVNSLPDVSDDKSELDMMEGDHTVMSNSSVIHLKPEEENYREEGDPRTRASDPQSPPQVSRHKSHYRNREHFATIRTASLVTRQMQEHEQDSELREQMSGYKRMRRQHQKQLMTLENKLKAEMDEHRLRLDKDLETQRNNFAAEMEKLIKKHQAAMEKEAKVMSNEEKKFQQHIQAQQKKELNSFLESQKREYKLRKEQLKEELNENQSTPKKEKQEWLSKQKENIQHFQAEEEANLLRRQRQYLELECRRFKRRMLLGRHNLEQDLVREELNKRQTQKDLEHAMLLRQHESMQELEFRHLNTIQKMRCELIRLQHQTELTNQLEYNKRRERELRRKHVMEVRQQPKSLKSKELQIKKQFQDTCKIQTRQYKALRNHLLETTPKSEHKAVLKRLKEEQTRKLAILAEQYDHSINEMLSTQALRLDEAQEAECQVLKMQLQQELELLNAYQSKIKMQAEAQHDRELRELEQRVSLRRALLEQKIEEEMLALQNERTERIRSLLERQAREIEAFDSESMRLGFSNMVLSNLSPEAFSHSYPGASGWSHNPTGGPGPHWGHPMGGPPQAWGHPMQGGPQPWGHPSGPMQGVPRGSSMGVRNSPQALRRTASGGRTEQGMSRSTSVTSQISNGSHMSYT
# Chain of UniProt Q96BR1 (whole entry, looked up): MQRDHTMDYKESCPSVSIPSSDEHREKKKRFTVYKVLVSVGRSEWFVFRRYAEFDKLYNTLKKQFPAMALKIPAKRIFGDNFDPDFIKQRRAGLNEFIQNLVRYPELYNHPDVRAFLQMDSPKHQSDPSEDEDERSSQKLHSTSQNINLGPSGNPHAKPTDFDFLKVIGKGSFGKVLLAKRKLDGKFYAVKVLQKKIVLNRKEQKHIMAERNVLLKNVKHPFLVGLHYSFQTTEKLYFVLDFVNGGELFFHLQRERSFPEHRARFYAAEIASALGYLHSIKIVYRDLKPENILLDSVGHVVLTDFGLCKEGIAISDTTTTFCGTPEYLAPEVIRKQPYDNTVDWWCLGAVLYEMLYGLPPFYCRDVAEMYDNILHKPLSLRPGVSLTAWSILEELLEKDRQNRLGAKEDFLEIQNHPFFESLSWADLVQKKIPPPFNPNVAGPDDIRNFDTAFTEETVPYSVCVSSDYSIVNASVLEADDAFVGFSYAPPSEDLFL
# Chain of UniProt P53350 (whole entry, looked up): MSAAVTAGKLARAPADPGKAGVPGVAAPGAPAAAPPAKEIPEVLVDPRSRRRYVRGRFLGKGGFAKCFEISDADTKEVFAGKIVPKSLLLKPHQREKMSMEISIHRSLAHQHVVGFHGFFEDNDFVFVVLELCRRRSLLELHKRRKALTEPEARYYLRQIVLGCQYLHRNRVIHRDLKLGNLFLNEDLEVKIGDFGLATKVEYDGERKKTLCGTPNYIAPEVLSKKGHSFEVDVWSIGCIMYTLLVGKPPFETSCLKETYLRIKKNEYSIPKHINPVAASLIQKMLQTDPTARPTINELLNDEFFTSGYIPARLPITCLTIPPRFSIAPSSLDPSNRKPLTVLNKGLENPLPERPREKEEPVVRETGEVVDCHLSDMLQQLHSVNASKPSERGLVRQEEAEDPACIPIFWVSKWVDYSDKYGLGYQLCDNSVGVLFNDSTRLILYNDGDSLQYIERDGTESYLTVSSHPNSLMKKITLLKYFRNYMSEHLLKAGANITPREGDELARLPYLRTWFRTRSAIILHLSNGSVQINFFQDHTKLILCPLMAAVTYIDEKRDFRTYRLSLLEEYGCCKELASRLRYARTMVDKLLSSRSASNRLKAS
# Chain of UniProt P08631 (whole entry, looked up): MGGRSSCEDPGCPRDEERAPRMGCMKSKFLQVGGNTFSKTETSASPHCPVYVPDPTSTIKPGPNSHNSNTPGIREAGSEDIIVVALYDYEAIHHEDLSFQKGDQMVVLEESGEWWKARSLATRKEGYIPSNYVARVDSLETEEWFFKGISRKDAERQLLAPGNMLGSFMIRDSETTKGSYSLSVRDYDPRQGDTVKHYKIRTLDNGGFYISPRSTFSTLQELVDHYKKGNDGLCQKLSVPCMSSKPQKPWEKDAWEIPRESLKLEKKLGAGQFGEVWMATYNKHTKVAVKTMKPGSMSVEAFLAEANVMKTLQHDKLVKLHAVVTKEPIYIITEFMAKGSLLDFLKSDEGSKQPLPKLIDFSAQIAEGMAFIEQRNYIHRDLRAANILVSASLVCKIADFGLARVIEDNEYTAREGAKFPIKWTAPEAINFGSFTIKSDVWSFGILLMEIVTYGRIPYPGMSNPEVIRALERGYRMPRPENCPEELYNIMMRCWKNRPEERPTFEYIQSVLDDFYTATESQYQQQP
# Chain of UniProt P14616 (whole entry, looked up): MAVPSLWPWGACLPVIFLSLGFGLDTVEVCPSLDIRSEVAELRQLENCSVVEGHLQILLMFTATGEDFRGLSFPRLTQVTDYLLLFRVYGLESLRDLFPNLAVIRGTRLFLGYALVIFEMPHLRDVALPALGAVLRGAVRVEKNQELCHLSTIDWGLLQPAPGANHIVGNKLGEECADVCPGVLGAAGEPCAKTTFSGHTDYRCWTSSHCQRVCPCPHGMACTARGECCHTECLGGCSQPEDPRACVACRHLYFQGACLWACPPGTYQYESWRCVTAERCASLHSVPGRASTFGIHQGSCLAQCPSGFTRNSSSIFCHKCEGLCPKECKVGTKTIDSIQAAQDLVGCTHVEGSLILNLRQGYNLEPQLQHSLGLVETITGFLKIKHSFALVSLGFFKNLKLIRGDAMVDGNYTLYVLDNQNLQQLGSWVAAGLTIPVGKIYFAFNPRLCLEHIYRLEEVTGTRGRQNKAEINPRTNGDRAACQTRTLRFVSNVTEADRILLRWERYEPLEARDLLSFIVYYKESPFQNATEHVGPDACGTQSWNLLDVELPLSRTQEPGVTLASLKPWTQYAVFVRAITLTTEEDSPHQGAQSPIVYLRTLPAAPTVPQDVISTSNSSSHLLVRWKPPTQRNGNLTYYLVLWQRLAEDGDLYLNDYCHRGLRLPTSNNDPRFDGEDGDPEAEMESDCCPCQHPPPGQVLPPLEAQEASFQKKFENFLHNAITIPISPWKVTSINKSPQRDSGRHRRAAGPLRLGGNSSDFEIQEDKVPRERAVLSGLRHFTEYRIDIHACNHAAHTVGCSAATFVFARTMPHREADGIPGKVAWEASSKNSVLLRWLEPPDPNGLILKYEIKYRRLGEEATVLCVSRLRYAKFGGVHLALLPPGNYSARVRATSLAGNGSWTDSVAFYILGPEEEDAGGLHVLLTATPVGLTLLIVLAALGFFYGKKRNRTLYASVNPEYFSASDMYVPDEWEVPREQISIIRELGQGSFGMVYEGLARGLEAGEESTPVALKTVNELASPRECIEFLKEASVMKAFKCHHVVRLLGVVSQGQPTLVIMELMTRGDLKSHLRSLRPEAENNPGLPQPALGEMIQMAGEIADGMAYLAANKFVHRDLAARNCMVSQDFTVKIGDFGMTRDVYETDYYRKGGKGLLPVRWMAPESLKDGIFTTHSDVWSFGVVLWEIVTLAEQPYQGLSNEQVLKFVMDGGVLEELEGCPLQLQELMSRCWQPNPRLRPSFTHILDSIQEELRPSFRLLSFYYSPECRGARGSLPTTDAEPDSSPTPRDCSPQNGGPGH

# Sample 1 — method: CCK-8
# Structure (SMILES): CC(C)S(=O)(=O)c1cc2c(Nc3ccc4sc(C5CCCC5)nc4c3)ccnc2cc1OCCO
cell line,setting,survival
L929 RIPK3-/- reexpressing RIPK3 K51A/R69H,50 µM,25.5% and 25.2% and 28.1% and 28.7%
L929 RIPK3-/- reexpressing RIPK3 K51A/R69H,3.125 µM,98.2% and 96.1% and 93% and 91.9% and 100%
L929 RIPK3-/- reexpressing RIPK3 K51A,3.125 µM,93.3% and 89.9% and 86.5% and 99.1%
L929 RIPK3-/- reexpressing RIPK3 K51A,"50 µM, together with: zVAD",13% and 13.3% and 11.4% and 13.2%
L929 RIPK3-/- reexpressing RIPK3 K51A,6.25 µM,85.2% and 82.1% and 86.7% and 76%
L929 RIPK3-/- reexpressing RIPK3 K51A/R69H,25 µM,66.2% and 64.5% and 70.3% and 61% and 60.2%
L929 RIPK3-/- reexpressing RIPK3 K51A/R69H,"50 µM, together with: zVAD",26.7% and 23.6% and 25.4% and 25.2% and 25.7%
L929 RIPK3-/- reexpressing RIPK3 K51A/R69H,12.5 µM,75.7% and 81.8% and 87.1% and 78.9% and 78.8%

# Sample 2 — read-out: enzyme activity; action: inhibitor; tested at: 0.5 µM; relative to: control
# Structure (SMILES): O=C1NC(=O)c2c1c1c3ccccc3n3c1c1c2c2ccccc2n1[C@H]1CC[C@@H]3O1
target,remaining activity [%]
"HCK (Homo sapiens, UniProt P08631)",24.8
"SGK3 (Homo sapiens, UniProt Q96BR1)",71.7
"TAOK1 (Homo sapiens, UniProt Q7L7X3)",66.9
"VRK1 (Homo sapiens, UniProt Q99986)",90.2
"PLK1 (Homo sapiens, UniProt P53350)",50.2
"FGFR2 (Homo sapiens, UniProt P21802)",34.1
"INSRR (Homo sapiens, UniProt P14616)",7.16

# Sample 3 — read-out: RNA clamping; method: fluorescence polarization; tested at: concentration not given; notes: mean of two replicates; together with: FAM-labelled poly r(AG)8 RNA
# Target: Eukaryotic initiation factor 4A-I (EIF4A1, Homo sapiens, UniProt P60842)
# Chain of UniProt P60842 (whole entry, looked up): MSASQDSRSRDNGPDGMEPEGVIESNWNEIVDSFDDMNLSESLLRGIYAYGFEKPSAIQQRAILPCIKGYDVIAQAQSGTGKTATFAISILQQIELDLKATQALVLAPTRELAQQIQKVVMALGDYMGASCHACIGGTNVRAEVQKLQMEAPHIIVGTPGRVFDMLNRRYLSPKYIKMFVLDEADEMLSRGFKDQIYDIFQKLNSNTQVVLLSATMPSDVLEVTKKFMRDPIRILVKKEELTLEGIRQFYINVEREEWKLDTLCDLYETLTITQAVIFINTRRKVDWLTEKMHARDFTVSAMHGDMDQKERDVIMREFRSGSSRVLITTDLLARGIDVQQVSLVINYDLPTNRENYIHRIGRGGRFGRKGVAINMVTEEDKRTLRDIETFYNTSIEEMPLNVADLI
Structure (SMILES),fluorescence polarization change [mP]
COC(=O)[C@@H]1[C@@H](c2ccccc2)[C@]2(c3ccc(OC)cc3)Oc3cc(OC)cc(OC)c3[C@@]23OC(c2ccc(Cl)cc2)=N[C@@]13O,2.1
COc1cc(OC)c2c(c1)O[C@@]1(c3ccc(Br)cc3)[C@H](c3ccccc3)[C@@H](C(=O)N(C)C)[C@@H](O)[C@@]21O,85.9
COC(=O)[C@H]1[C@H](c2ccccc2)[C@@]2(c3ccc(Br)cc3)Oc3cc(OC)cc(OC)c3[C@]1(O)[C@H]2O,9.2
COC(=O)[C@@H]1[C@@H](c2ccccc2)[C@]2(c3ccc(OC)cc3)Oc3cc(OC)cc(OC)c3[C@@]23OC(c2ccccc2)=N[C@@]13O,-1.5
COC(=O)[C@@H]1[C@@H](c2ccccc2)[C@]2(c3ccc(OC)cc3)Oc3cc(OC)cc(OC)c3[C@@]23OC(c2ccc(OC)cc2)=N[C@@]13O,-0.8
COC(=O)[C@@H]1[C@@H](c2ccccc2)[C@]2(c3ccc(OC)cc3)Oc3cc(OC)cc(OC)c3[C@@]23OC(c2ccc(F)cc2)=N[C@@]13O,22.8

# Sample 4 — read-out: cell-free assay; tested at: 10 µM
# Target: Sodium-dependent noradrenaline transporter (SLC6A2, Homo sapiens, UniProt P23975)
# Chain of UniProt P23975 (whole entry, looked up): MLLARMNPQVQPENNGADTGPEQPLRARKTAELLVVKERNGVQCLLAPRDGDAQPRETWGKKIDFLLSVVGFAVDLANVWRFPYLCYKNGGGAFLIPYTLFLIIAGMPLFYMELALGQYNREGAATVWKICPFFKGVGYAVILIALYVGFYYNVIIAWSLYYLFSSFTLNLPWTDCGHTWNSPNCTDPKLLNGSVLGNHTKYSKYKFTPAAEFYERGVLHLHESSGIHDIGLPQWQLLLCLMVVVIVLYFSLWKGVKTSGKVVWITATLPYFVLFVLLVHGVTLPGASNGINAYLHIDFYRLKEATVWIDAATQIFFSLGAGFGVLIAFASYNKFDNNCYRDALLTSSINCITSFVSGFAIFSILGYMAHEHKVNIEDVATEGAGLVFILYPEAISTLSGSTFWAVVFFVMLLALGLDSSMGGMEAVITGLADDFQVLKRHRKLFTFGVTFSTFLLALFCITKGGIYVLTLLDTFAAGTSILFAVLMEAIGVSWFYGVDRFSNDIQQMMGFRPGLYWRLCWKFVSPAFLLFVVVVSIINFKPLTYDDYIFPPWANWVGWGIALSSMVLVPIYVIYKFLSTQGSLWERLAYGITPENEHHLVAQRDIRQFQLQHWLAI
Compound,inhibition [%]
CN(C)c1ncnc(-c2ccc3nc(Nc4cc(CN5CCN(C(=O)CC(F)(F)F)CC5)ccn4)[nH]c3c2)c1Cl,-29.4
CN1CCN(c2ccnc(NCCc3ccccc3)n2)CC1,93.8
Cc1ccccc1Oc1cc(-n2c(=O)cc(C(F)(F)F)[nH]c2=O)c2ccccc2c1Cl,-1.01
CCOc1cc(N2C3COCC2CN(C(=O)[C@H]2C[C@H](O)CN2c2ccc(Cl)cc2)C3)ccc1Cl,1.24
CN(C)C(=O)Cn1cc(-c2nc(C3(c4ccc(-c5cnc(N)nc5)cc4)CC3)no2)cn1,8.33
COc1ccc2cc(OCC3(C(=O)O)CN(C(=O)c4ccc(F)cc4)C3)ccc2c1,11
CN1CCN(C(=O)C(C)(C)c2ccc(C(=O)Nc3cn4cc(-c5cc(C(C)(C)C)cc(C(C)(C)C)c5)ccc4n3)cc2)CC1,40.8
O=C(Nc1ccc(Oc2ccc(F)cc2)cc1)N1CCc2ncccc2[C@H]1c1ccc(F)cc1,32.5
Cn1nc(C(F)(F)F)cc1-c1cnc(N2CCc3cc(S(=O)(=O)Nc4c(F)cc(Cl)cc4F)cc(N4CCCC4=O)c32)nc1,5.69
Cn1cc(Cl)c2c(Oc3c(F)cc(Nc4cc(Cl)nc(N)n4)cc3F)ccnc21,3.14
CS(=O)(=O)c1cc(C2(NC(=O)c3cncc4c3cnn4-c3ccc(F)cc3)CC2)ccn1,-25
Nc1cnc(N2CCc3cc(S(=O)(=O)Nc4c(F)cc(Cl)cc4F)cc(N4CCCC4=O)c32)nc1,18.2
N#CC1(c2ccccn2)CCN(Cc2cc(C(=O)N3CCCC3)c(=O)n3ccccc23)CC1,40.5
CO[C@H]1CC[C@H](CNc2ccc(S(=O)(=O)NC(=O)c3ccc(N4CCN(CC5=C(c6ccc(Cl)cc6)CC(C)(C)CC5)CC4)cc3Oc3cnc4[nH]ccc4c3)cc2[N+](=O)[O-])CC1,39.5
NS(=O)(=O)c1cc(NC(=O)C2(c3ccccc3Cl)CC2)ccc1Oc1cccc(Cl)c1,22.4
Cc1c(C(=O)O)cc(-c2ccc(C3CCNCC3)cc2)c2ccc(-c3ccc(C(F)(F)F)cc3)cc12,11.2
Cc1ccc(-c2cnc([C@@]3(O)CC[C@H](C(=O)O)C(C)(C)C3)s2)cc1Nc1cccc(C(F)(F)F)n1,-19.6
CC1=C(C#N)C(c2ccc3[nH]nc(C)c3c2)C(C#N)=C(C)N1,-28.1
N#CC1(c2ccccn2)CCN(Cc2cc(C(=O)O)c(=O)n3ccccc23)CC1,24.7
C[C@H](c1ccc(F)cc1)N(Cc1cccc(C(=O)O)c1)C(=O)c1cnc2ccccc2c1,2.04
Cc1c(NC(=O)c2cc(C(N)=O)nc3cc(F)ccc23)c(C(F)(F)F)nn1Cc1ccc(C#N)cc1,-14.2
CCOc1ccc(S(=O)(=O)Nc2ccc(Cl)cc2C#Cc2cnc(C(=O)O)cc2OC)c2ncccc12,34.4
COc1cc(C(=O)O)ncc1C#Cc1ccccc1NS(=O)(=O)c1cccc2c(N(C)C)ccnc12,-7.14
CC1CCN(c2ccnc(NCc3cn(C)cn3)n2)CC1,75.8
Cn1nc(C(=O)NCc2ccc(C(=O)O)cc2)cc1-c1ccc2[nH]ccc2c1,-21.4

# Sample 5 — cell line: mouse MPNST tumor cells; method: high-content nuclear imaging; measured: cell number; tested at: 10 µM; time: 12 h; notes: mean of 2 replicates; relative to: plate mean; reading: higher = more cells
Compound,nuclei count
CN(C)[C@@H]1C(=O)C(C(N)=O)=C(O)[C@@]2(O)C(=O)C3=C(O)c4c(O)ccc(Cl)c4[C@@](C)(O)[C@H]3C[C@@H]12,0.487 z-score
COc1ccc2c(c1)[C@]13CCCC[C@@H]1[C@H](C2)N(C)CC3,2.86 z-score
C[C@@]12N[C@@H](Cc3ccccc31)c1ccccc12,1.88 z-score
C=CCN1C[C@H](C)N([C@H](c2ccc(C(=O)N(CC)CC)cc2)c2cccc(OC)c2)C[C@H]1C,0.499 z-score
COCC1(CO)C(=O)C2CCN1CC2 (stereo not shown),-1.73 z-score
c1ccc(CCCCN2CCC(c3ccccc3)CC2)cc1,-1.11 z-score

# For quick reference, copied from above (sample 2):
target,remaining activity [%]
"HCK (Homo sapiens, UniProt P08631)",24.8
"SGK3 (Homo sapiens, UniProt Q96BR1)",71.7
"TAOK1 (Homo sapiens, UniProt Q7L7X3)",66.9
"VRK1 (Homo sapiens, UniProt Q99986)",90.2
"PLK1 (Homo sapiens, UniProt P53350)",50.2
"FGFR2 (Homo sapiens, UniProt P21802)",34.1
"INSRR (Homo sapiens, UniProt P14616)",7.16
